Measurements pooled from the literature.
Values joined by “and” are separate records of one study, mostly repeats; a detail may differ. ± gives the spread as reported.

CSCC[C@H](NC(=O)CNC(=O)[C@H](CCCCN)NC(=O)[C@H](CC(C)C)NC(=O)[C@@H]1CCCN1C(=O)[C@H](CO)NC(=O)[C@H](Cc1c[nH]cn1)NC(=O)[C@H](Cc1c[nH]c2ccccc12)NC(=O)[C@H](CCCNC(=N)N)NC(=O)[C@H](CC(C)C)NC(=O)[C@H](CCCNC(=N)N)NC(=O)[C@H](Cc1c[nH]c2ccccc12)NC(=O)[C@H](CS)NC(=O)CCCCCNC(=O)CN1CCN(CC(=O)O)CCN(CC(=O)O)CCN(CC(=O)O)CC1)C(=O)O [copper-64 labelled]
tissue uptake (C57BL/6J mice, B16-F10 tumour, brain; intravenous, 1.85 MBq, 2 h): 0.23 %ID/g

CC[C@H](C)[C@H](NC(=O)[C@H](CCCNC(=N)N)NC(=O)[C@H](CCCCN)NC(=O)[C@H](Cc1ccc(O)cc1)NC(=O)[C@H](CC(=O)O)NC(=O)[C@H](C)NC(=O)CNC(=O)CCOCCOCCOCCNC(=O)CN1CCN(CC(=O)O)CCN(CC(=O)O)CCN(CC(=O)O)CC1)C(=O)N[C@H](C(=O)N[C@H](C(=O)N[C@@H](CCCCN)C(=O)N[C@H](C(=O)N[C@@H](CC(N)=O)C(N)=O)C(C)C)C(C)C)[C@@H](C)O [copper-64 labelled]
tissue uptake (ex vivo gamma counting; C57BL/6J male mice, B16-F10 tumour, muscle; intravenous, 1.85 MBq, 20 min): 1.08 ± 0.485 %ID/g

CCCC[C@H]1C(=O)N(C)[C@@H](CCCC)C(=O)N[C@@H](CCCNC(=O)CN2CCN(CC(=O)O)CCN(CC(=O)O)CCN(CC(=O)O)CC2)C(=O)N[C@H](C(=O)NCC(N)=O)CSCC(=O)N[C@@H](Cc2ccc(O)cc2)C(=O)N(C)[C@@H](C)C(=O)N[C@@H](CC(N)=O)C(=O)N2CCC[C@H]2C(=O)N[C@@H](Cc2c[nH]cn2)C(=O)N[C@@H](CC(C)C)C(=O)N(C)CC(=O)N[C@@H](Cc2c[nH]c3ccccc23)C(=O)N[C@@H](CO)C(=O)N[C@@H](Cc2c[nH]c3ccccc23)C(=O)N1C [gallium-68 labelled]
tissue uptake (NOD/SCID mice, CHO-hPD-L1 xenograft, liver; 60 min, atezolizumab 10 mg/kg pretreatment): 8.46 ± 0.97 %ID/g

Cc1ccc(N2C[C@@H]3C[C@H]2CN3C)cc1C(=O)N[C@H](C)c1cc(-c2cnn(C)c2)nc2ccccc12
viability (African green monkey cells; 15.62 µM): 95.9%

CC[C@H](C)[C@H](NC(=O)[C@H](CCCCN)NC(=O)CNC(=O)[C@H](CC(C)C)NC(=O)[C@H](Cc1ccccc1)NC(=O)[C@H](CCCCN)NC(=O)[C@H](CO)NC(=O)[C@H](Cc1ccccc1)NC(=O)[C@H](Cc1c[nH]c2ccccc12)NC(=O)[C@H](CCC(N)=O)NC(=O)[C@@H](NC(=O)[C@H](Cc1ccccc1)NC(=O)CCCCCNC(=O)CN1CCN(CC(=O)O)CCN(CC(=O)O)CCN(CC(=O)O)CC1)C(C)C)C(=O)N[C@@H](CCC(=O)O)C(=O)N1CCC[C@H]1C(=O)N[C@@H](CC(=O)O)C(=O)N[C@H](C(=O)N[C@@H](CO)C(=O)N[C@@H](CCC(N)=O)C(=O)N[C@H](C(=O)N[C@@H](CCC(N)=O)C(=O)N[C@@H](CC(=O)O)C(=O)N1CCC[C@H]1C(=O)N[C@@H](CC(N)=O)C(=O)N[C@@H](CC(=O)O)C(=O)N[C@@H](CCC(N)=O)C(=O)N[C@@H](Cc1ccc(O)cc1)C(=O)N[C@@H](CCC(=O)O)C(=O)N1CCC[C@H]1C(=O)N[C@@H](Cc1ccccc1)C(=O)O)C(C)C)C(C)C [copper-64 labelled]
tissue uptake (C57BL/6 mice, liver; vehicle, intratracheal instillation): 9.81 ± 0.5 %ID/g

Cc1ccc(OCCN(C)C)cc1C(=O)N[C@H](C)c1cc(-c2cnn(C(C)C)c2)nc2ccccc12
viability (Vero E6; 7.812 µM): 96.6% and 90.5%

C[C@H](O)[C@@H](NC(=O)[C@H]1CCCN1C(=O)[C@@H](CCCCN)NC(=O)[C@@H](CO)NC(=O)[C@@H](Cc1ccc(O)cc1)NC(=O)[C@@H](CC(N)=O)NC(=O)CCOCCOCCOCCNC(=O)CN1CCN(CC(=O)O)CCN(CC(=O)O)CCN(CC(=O)O)CC1)C(=O)N[C@H](CC(=O)O)C(=O)N[C@H](CCCNC(=N)N)C(=O)N[C@H](CCC(N)=O)C(=O)N[C@H](Cc1ccc(O)cc1)C(=O)N[C@H](Cc1c[nH]cn1)C(=O)N[C@H](Cc1ccccc1)C(N)=O [copper-64 labelled]
tissue uptake (C57BL/6J mice, pancreas; intravenous, 1.85 MBq, 1 h, radiolabelled): 0.22 ± 0.05 %ID/g

CN1Cc2cc(Cl)ccc2-n2c(nnc2C2CCN(c3cccc([18F])n3)CC2)C1
tissue uptake (C57BL/6 mouse male, small intestine; intravenous, 3.7 MBq, 1 min): 5.18 ± 2.12 %ID/g

O=C1NC2(CC2)COc2ncc(F)cc2[C@H]2COCCN2c2ccn3ncc1c3n2
organ-to-body weight ratio (Sprague-Dawley rat, female, heart; oral, 10 mg/kg/day, 4 weeks dosing, end of recovery): 0.376 ± 0.032%

CC[C@H](C)[C@H](NC(=O)[C@H](CCCNC(=N)N)NC(=O)[C@H](CCCCN)NC(=O)[C@H](Cc1ccc(O)cc1)NC(=O)[C@H](CC(=O)O)NC(=O)[C@H](C)NC(=O)CNC(=O)CCOCCOCCOCCNC(=O)CN1CCN(CC(=O)O)CCN(CC(=O)O)CCN(CC(=O)O)CC1)C(=O)N[C@H](C(=O)N[C@@H](CC(C)C)C(=O)N[C@@H](CCCCN)C(=O)N[C@H](C(=O)N[C@@H](CC(N)=O)C(N)=O)C(C)C)[C@@H](C)O [copper-64 labelled]
tissue uptake (ex vivo gamma counting; male C57BL/6J mouse, B16-F10 tumour, intestinal lymph node; intravenous, 1.85 MBq, 5 min): 3.26 ± 0.866 %ID/g

CC(C)C[C@@H](NC(=O)[C@@H](CCCNC(=N)N)NC(=O)[C@@H](Cc1c[nH]cn1)NC(=O)[C@@H](Cc1c[nH]c2ccccc12)NC(=O)[C@@H](Cc1c[nH]cn1)NC(=O)[C@@H](Cc1ccccc1)NC(=O)[C@H](NC(=O)[C@@H](Cc1ccc(O)cc1)NC(=O)CNC(=O)CNC(=O)CCOCCOCCOCCNC(=O)CN1CCN(CC(=O)O)CCN(CC(=O)O)CC1)[C@H](C)O)C(=O)N[C@H](CC(N)=O)C(=O)N1CCC[C@@H]1C(=O)O [gallium-68 labelled]
tissue uptake (C57BL/6 mice, male, brain; intravenous, 1.85 MBq, 60 min, added: blocking antibody): 0.73 ± 0.23 %ID/g

Excerpt of the above:
CC[C@H](C)[C@H](NC(=O)[C@H](CCCNC(=N)N)NC(=O)[C@H](CCCCN)NC(=O)[C@H](Cc1ccc(O)cc1)NC(=O)[C@H](CC(=O)O)NC(=O)[C@H](C)NC(=O)CNC(=O)CCOCCOCCOCCNC(=O)CN1CCN(CC(=O)O)CCN(CC(=O)O)CCN(CC(=O)O)CC1)C(=O)N[C@H](C(=O)N[C@H](C(=O)N[C@@H](CCCCN)C(=O)N[C@H](C(=O)N[C@@H](CC(N)=O)C(N)=O)C(C)C)C(C)C)[C@@H](C)O [copper-64 labelled]
tissue uptake (ex vivo gamma counting; C57BL/6J male mice, B16-F10 tumour, muscle; intravenous, 1.85 MBq, 20 min): 1.08 ± 0.485 %ID/g
